Assay results pooled from the literature.
± gives the spread as reported.

C/C=C1\NC(=O)[C@H]2CSSCC/C=C/[C@H](CC(=O)N[C@H](C(C)C)C(=O)N2)OC(=O)[C@H](C(C)C)NC1=O — IC50 (Lucilia cuprina; larval weight gain; LS strain, larvae on impregnated cotton wool; 24 h): 0.124 µg
CCCCCCCCCCCCCCCCOP(=O)([O-])OCC[N+](C)(C)C — IC50 (Leishmania donovani; parasite growth; THP-1; intracellular, amastigote): 1.97 µM
CCCC(CCC)C(=O)O — IC50 (Lucilia cuprina; larval weight gain; LS strain, larvae on impregnated cotton wool; 24 h): > 1000 µg
C#CCn1cc(C=O)c2cc([N+](=O)[O-])ccc21 — IC50 (Trypanosoma congolense; trypomastigotes, IL3000): > 110 µM
O=C(Nc1ccc([N+](=O)[O-])cc1Cl)c1cc(Cl)ccc1O — IC50 (Zika virus; viral replication, focus-forming; iPSC-derived human astrocytes, PRVABC59): ~0.2 µM
Cc1ccc(Cn2cc(/C=N/N3C(=O)CSC3=S)c3cc([N+](=O)[O-])ccc32)cc1 — IC50 (Leishmania major; parasite growth, resazurin; THP-1; 72 h, intracellular, amastigote): > 10 µM
CCCCc1nc2cc(/C=C/C(=O)NO)ccc2n1CCN(CC)CC — IC50 (Lucilia cuprina; larval weight gain; LS strain, larvae on impregnated cotton wool; 24 h): 302 µg
O=c1c(O)c(-c2cc(O)c(O)c(O)c2)oc2cc(O)cc(O)c12 — IC50 (human alphaherpesvirus 2; viral replication; HEp-2, 333; 24 h): 3.5 ± 0.4 µM
O=C(Nc1cccc(CO)c1)c1ccccc1Sc1ccc([N+](=O)[O-])cc1 — IC50 (Human immunodeficiency virus 1; viral replication; MT4; 7 days): 52 µM
O=c1[nH]c2c([N+](=O)[O-])cccc2cc1-c1cccnc1 — IC50 (Trypanosoma brucei; parasite growth, resazurin; 74 h, trypomastigote): 2.8 µM
O=C(Nc1ccc2c(c1)OCO2)c1ccccc1Sc1ccc([N+](=O)[O-])cc1Cl — IC50 (Human immunodeficiency virus 1; viral replication; MT4; 7 days): 10 µM
O=Cc1c[nH]c2ccc([N+](=O)[O-])cc12 — IC50 (Leishmania major; parasite growth, resazurin; THP-1; 72 h, intracellular, amastigote): > 10 µM
C=C1CC[C@@H]2[C@](C)(CCC[C@@]2(C)C(=O)O)[C@H]1CC[C@H](C)CC(=O)O — IC50 (Leishmania amazonensis; 72 h, pH 4.6, axenic amastigotes): 3.5 µg/mL
CS(=O)(=O)c1ccc(-c2cnc(N)c(-c3ccc(C(F)(F)F)nc3)c2)cc1 — IC50 (Plasmodium cynomolgi; schizont (large EEF) growth; primary rhesus hepatocytes; day 4, compound added at 96 h): 1 µM
O=C1CSC(=S)N1/N=C/c1c[nH]c2ccc([N+](=O)[O-])cc12 — IC50 (Leishmania major; parasite growth, resazurin; THP-1; 24 h, intracellular, amastigote): > 10 µM
Cc1cc(C)n2c1C=C1C=CC(CCC(=O)NCCNC(=O)CCc3ccccc3)=[N+]1[B-]2(F)F — IC50 (Trypanosoma brucei; parasite growth, ATP luminescence; 48 h): > 50 µM
C#CCn1cc(/C=N/N2C(=O)CSC2=S)c2cc([N+](=O)[O-])ccc21 — IC50 (Leishmania major; parasite growth, resazurin; THP-1; 72 h, intracellular, amastigote): 8.6 µM
COc1ccccc1C(=O)Nc1ccccc1Sc1ccc(N)cc1 — IC50 (Human immunodeficiency virus 1; viral replication; MT4; 7 days): 39.8 µM
O=[N+]([O-])c1ccc2[nH]ccc2c1 — IC50 (Trypanosoma congolense; trypomastigotes, IL3000): > 154 µM
O=C(O)c1cccc(-c2cc3cccc([N+](=O)[O-])c3[nH]c2=O)c1 — IC50 (Trypanosoma brucei; parasite growth, resazurin; 74 h, trypomastigote): 7.5 µM

A few entries again:
C=C1CC[C@@H]2[C@](C)(CCC[C@@]2(C)C(=O)O)[C@H]1CC[C@H](C)CC(=O)O — IC50 (Leishmania amazonensis; 72 h, pH 4.6, axenic amastigotes): 3.5 µg/mL
CS(=O)(=O)c1ccc(-c2cnc(N)c(-c3ccc(C(F)(F)F)nc3)c2)cc1 — IC50 (Plasmodium cynomolgi; schizont (large EEF) growth; primary rhesus hepatocytes; day 4, compound added at 96 h): 1 µM
O=C1CSC(=S)N1/N=C/c1c[nH]c2ccc([N+](=O)[O-])cc12 — IC50 (Leishmania major; parasite growth, resazurin; THP-1; 24 h, intracellular, amastigote): > 10 µM
